{"data": "Measurements collected from several papers", "target": "D(1A) dopamine receptor (DRD1, Homo sapiens, UniProt P21728)", "note": "Compare with care: the assays were run in different laboratories."}
{"SMILES": "CCc1nnc(-c2c(OC)cc(-c3cnc4cc(-c5cnn(C)c5)ccn34)cc2OC)o1", "assay": "antagonist radioligand, radioligand binding", "conditions": "10 µM, SafetyScreen44 D1 mean", "scale": "lower = stronger displacement", "endpoint": "remaining binding", "result": "93.5%"}
{"SMILES": "CN[C@@H]1[C@H](O)[C@H](NC)[C@H]2O[C@]3(O)[C@H](O[C@@H]2[C@H]1O)O[C@H](C)C[C@H]3NC(=O)Cc1ccc(Cl)cn1", "assay": "ligand displacement, radioligand", "conditions": "10 µM", "endpoint": "inhibition", "result": "1%"}
{"SMILES": "CCO[C@H]1[C@H](O)[C@@H](N)[C@@H](O[C@H]2[C@H](O[C@@H]3O[C@H](CO)[C@@H](O[C@H]4O[C@@H](CN)[C@@H](O)[C@H](O)[C@H]4N)[C@H]3O)[C@@H](O)[C@H](N)C[C@@H]2N)O[C@@H]1CO", "assay": "radioligand binding", "conditions": "10 µM, 1% DMSO", "endpoint": "specific binding", "result": "-10%"}
{"SMILES": "Cc1cc(Nc2nc(C[C@@]3(C(=O)O)CCN(Cc4cccc(Cl)c4F)[C@H](C)C3)cc(C)c2F)[nH]n1", "assay": "inhibitor", "conditions": "10 µM", "endpoint": "inhibition", "result": "1.44%"}
{"SMILES": "CCN(CC)CCOc1ccc(-c2nnn(Cc3ccc(OC)cc3)c2N)cc1", "assay": "radioligand binding", "system": "HEK293", "conditions": "10 µM, safety profiling", "endpoint": "inhibition", "result": "45.4%"}
{"SMILES": "N[C@H](C(=O)N1CCCC1)C1CCN(c2nccc3c(-c4ncc(Cl)cc4Cl)cccc23)CC1", "assay": "functional response, agonist", "conditions": "10 µM", "endpoint": "response", "result": "-2%"}
{"SMILES": "C[C@H](NCc1ccc(-c2ccc(C(F)(F)F)cc2)cc1)C(N)=O", "assay": "radioligand binding, SafetyScreen panel", "conditions": "1 µM, species human, together with: 1.40 nM [3H]SCH-23390", "endpoint": "inhibition", "result": "2%"}
{"SMILES": "Cc1cc(-c2ccc3ccccc3c2)nnc1NCCN1CCN(C)CC1", "assay": "antagonist", "conditions": "concentration not given", "endpoint": "antagonist activity", "result": "negative"}
{"SMILES": "C/C(=N\\OCCCN1CCCCC1)c1ccc(C(F)(F)F)cc1", "assay": "agonist, cAMP", "conditions": "10 µM", "endpoint": "activation", "result": "9.51%"}
{"SMILES": "CS(C)(=O)=Nc1ccc(-c2ccc(-c3nc4cc(O[C@@H]5CO[C@H]6[C@@H]5OC[C@H]6O)[nH]c4cc3F)cc2)cc1", "assay": "calcium signal, antagonist", "conditions": "10 µM", "endpoint": "inhibition", "result": "-28%"}
{"SMILES": "Cc1sc2c(c1C)C(c1ccc(Cl)cc1)=NC(CC(=O)OC(C)(C)C)c1nnc(C)n1-2 (stereo not drawn)", "assay": "ligand displacement, radioligand", "conditions": "1 µM", "endpoint": "inhibition", "result": "-2%"}
{"SMILES": "O=C1c2ccccc2CCCN1CCCCN1CCN(c2cccc(Cl)c2Cl)CC1", "assay": "radioligand binding", "conditions": "concentration not given, together with: [3H]SCH23390", "endpoint": "inhibition", "result": "89.8%"}
